Published values from different studies.
Compare with care: the assays were run in different laboratories. Values joined by “and” are separate records of one study, mostly repeats; a detail may differ. Numbers after ± are the reported error.
RIPK3: Receptor-interacting serine/threonine-protein kinase 3 (RIPK3, Homo sapiens, UniProt Q9Y572)
BPTF bromodomain: Nucleosome-remodeling factor subunit BPTF, bromodomain (BPTF, Homo sapiens, UniProt Q12830)

SMILES	tested on	assay	system	conditions	measurement	value
O=C(Cc1cccc(C(F)(F)F)c1)Nc1cc(Oc2c(Br)cc3nc(NC(=O)C4CC4)sc3c2Br)ccc1F	RIPK3	binding, competition with immobilised ligand			Kd	> 5 µM
N=C(N)NCCC[C@@H]1NC(=O)[C@H](CCCCNC(=S)Nc2ccc(CC3CN(CC(=O)O)CCN(CC(=O)O)CCN(CC(=O)O)CCN3CC(=O)O)cc2)NC(=O)[C@@H](Cc2ccc(O)cc2)NC(=O)[C@H](CC(=O)O)NC(=O)CNC1=O (some centres unmarked) [actinium-225 labelled]			U-87 MG tumour-bearing mice	24 h	tumour to blood ratio	42
C#CCN(CC(=O)N(CCOC)CC(=O)N(CCOC)CC(N)=O)C(=O)CN(CCOC)C(=O)CN(CC1CCCC1)C(=O)CN(CCc1ccc(C(F)(F)F)cc1)C(=O)C(C)N(CCCOC)C(=O)CNCc1ccc(OC)c(OC)c1 (centres unmarked)	Matrix metalloproteinase-14 (MMP14, Homo sapiens, UniProt P50281)	binding, FP			Kd	~1.8 µM and 1.8 µM
CC(=O)NCCCC[C@H](NC(=O)CNC(=O)[C@H](CO)NC(=O)[C@H](CC(=O)O)NC(=O)[C@H](CCCCN)NC(=O)CNC(=O)[C@H](C)NC(=O)[C@H](CCCCN)NC(=O)CNC(=O)CNC(=O)[C@H](C)NC(=O)[C@@H](N)Cc1ccc(O)cc1)C(=O)N[C@@H](C)C(=O)N[C@@H](CCCCNC(C)=O)C(=O)N[C@H](C(=O)N[C@@H](CCCCN)C(=O)N[C@@H](C)C(=O)N[C@H](C(=O)N[C@@H](CO)C(=O)N[C@@H](CCCNC(=N)N)C(N)=O)C(C)C)[C@@H](C)O	BPTF bromodomain	bromodomain binding, PrOF NMR titration		pH 7.4, 5-fluorotryptophan-labelled bromodomain, 40-50 µM	Kd	1440 µM
COc1cc(-c2nc3ccc(C(=O)NCCCN4CCN(c5cccc(C)c5C)CC4)cc3n2C2CCC2)cc(OC)c1OC	Bone morphogenetic protein receptor type-1B (BMPR1B, Homo sapiens, UniProt O00238)	cell-free assay, TR-FRET			Kd	0.301 µM
CC(=O)NCCCC[C@H](NC(=O)CNC(=O)CNC(=O)[C@H](C)NC(=O)[C@@H](N)Cc1ccc(O)cc1)C(=O)N[C@@H](C)C(=O)NCC(=O)N[C@@H](CCCCN)C(=O)N[C@@H](CC(=O)O)C(=O)N[C@@H](CO)C(=O)NCC(=O)N[C@@H](CCCCN)C(=O)N[C@@H](C)C(=O)N[C@@H](CCCCN)C(=O)N[C@@H](C)C(=O)N[C@@H](CCCCNC(C)=O)C(=O)N[C@@H](C)C(=O)N[C@H](C(=O)N[C@@H](CO)C(=O)N[C@@H](CCCNC(=N)N)C(N)=O)C(C)C	BPTF bromodomain	protein-observed fluorine NMR			Kd	430 µM
CC[C@H](C)[C@H](NC(=O)[C@@H]1CCCN1C(=O)[C@@H](NC(=O)[C@H](C)N)C(C)C)C(=O)N[C@@H](C)C(=O)N[C@@H](CCC(N)=O)C(=O)N[C@@H](CCCCN)C(=O)N[C@@H](CO)C(=O)N[C@@H](CCC(=O)O)C(=O)N1CCC[C@H]1C(=O)N[C@@H](Cc1c[nH]cn1)C(=O)N[C@@H](CO)C(=O)N[C@@H](CC(C)C)C(=O)N[C@@H](CO)C(=O)N[C@@H](CO)C(=O)O	Baculoviral IAP repeat-containing protein 5 (BIRC5, Homo sapiens, UniProt O15392, H80W/K62Y)	ITC		pH 7.5, 25 °C, K62Y/H80W double mutant	Kd	19.8 ± 2.3 µM
COc1ccc(Cc2cc3c4c(c2)O[C@H](CO)[C@H](O)[C@@H]4OC3)cc1	Galectin-9, N-terminal CRD (LGALS9, Homo sapiens, UniProt O00182)	binding, competitive fluorescence polarization		20 °C, galectin-9 N-terminal domain 1.0 µM	Kd	> 1000 µM
CCCC[C@@H](C(=O)N1CCN([C@@H](CCC(N)=O)C(N)=O)C(=O)[C@@H]1C)N1CCN[C@@H](CC(C)C)C1=O	Histone acetyltransferase p300, CH1 domain (EP300, Homo sapiens, UniProt Q09472)	binding, tryptophan fluorescence			Kd	0.03 ± 0.01 µM
O=c1c(OS(=O)(=O)O)c(-c2ccc(OS(=O)(=O)O)c(OS(=O)(=O)O)c2)oc2cc(OS(=O)(=O)O)cc(OCCCOc3cc(OS(=O)(=O)O)cc4oc(-c5ccc(OS(=O)(=O)O)c(OS(=O)(=O)O)c5)c(OS(=O)(=O)O)c(=O)c34)c12	Fibronectin (FN1, Homo sapiens, UniProt P02751)	binding, MST			Kd	15.5 µM
CC(=O)N[C@@H]1[C@@H](O[C@@H]2O[C@H](C(=O)O)[C@@H](O[C@@H]3O[C@H](COS(=O)(=O)O)[C@@H](OS(=O)(=O)O)[C@H](O[C@@H]4O[C@H](C(=O)O)[C@@H](OS(=O)(=O)O)[C@H](OS(=O)(=O)O)[C@H]4OS(=O)(=O)O)[C@H]3NC(C)=O)[C@H](OS(=O)(=O)O)[C@H]2OS(=O)(=O)O)[C@H](OS(=O)(=O)O)[C@@H](COS(=O)(=O)O)O[C@H]1N=[N+]=[N-]	Transforming growth factor beta-1 proprotein, mature (TGFB1, Homo sapiens, UniProt P01137)	fluorescence polarization competition			Kd	4.8 ± 1.7 µM
COc1cc(CNC(=O)C[C@H](C)CCC=C(C)C)ccc1OCc1cn(-c2ccc([N+](=O)[O-])cc2)nn1	SF-268 CNS cancer cells	SRB		10 µM, 48 h	growth percent	88.8%
Cc1cc(N2CC[C@@](C#N)(C3CC3)C2=O)cc(NC(=O)Cc2ccccc2)n1	Proline--tRNA ligase (Plasmodium falciparum, UniProt Q8I5R7)	binding, MST			Kd	~0.278 µM and 0.278 µM
CC(=O)NCCCC[C@H](NC(=O)CNC(=O)[C@H](CO)NC(=O)[C@H](CC(=O)O)NC(=O)[C@H](CCCCN)NC(=O)CNC(=O)[C@H](C)NC(=O)[C@H](CCCCN)NC(=O)CNC(=O)CNC(=O)[C@H](C)NC(=O)[C@@H](N)Cc1ccc(O)cc1)C(=O)N[C@@H](C)C(=O)N[C@@H](CCCCN)C(=O)N[C@H](C(=O)N[C@@H](CCCCNC(C)=O)C(=O)N[C@@H](C)C(=O)N[C@H](C(=O)N[C@@H](CO)C(=O)N[C@@H](CCCNC(=N)N)C(N)=O)C(C)C)[C@@H](C)O	BPTF bromodomain	bromodomain binding, PrOF NMR titration		pH 7.4, 5-fluorotryptophan-labelled bromodomain, 40-50 µM	Kd	950 µM
Oc1c(I)cc(I)cc1CN1CCC(N2CCC(O)CC2)CC1	Cellular tumor antigen p53 (TP53, Homo sapiens, UniProt P04637, M133L/N239Y/N268D/V203A/Y220C)			20 °C, protein 75 µM	Kd	87 ± 17 µM
CC(=O)NCCCC[C@H](NC(=O)[C@H](CCCCN)NC(=O)[C@H](Cc1c[nH]cn1)NC(=O)[C@H](CCCNC(=N)N)NC(C)=O)C(=O)Nc1ccc2c(C)cc(=O)oc2c1	NAD-dependent protein deacetylase sirtuin-1 (SIRT1, Homo sapiens, UniProt Q96EB6, C253S/C268S/C501S/C502S/D292A/D298A/del513-640)	peptide binding, isothermal titration calorimetry	10% glycerol	pH 7.5, 25 °C, D292A/D298A mutant, added: resveratrol 0.5 mM	Kd	6.5 µM
CCCc1cc2c3c(c1CCC)O[C@H](CO)[C@H](O)[C@@H]3OC2	Galectin-9 (LGALS9, Homo sapiens, UniProt O00182)	cell-free assay, FP			Kd	> 2000 µM
C[C@H](NC(=O)[C@H](Cc1ccc(O)cc1)NC(=O)[C@H](Cc1ccccc1)NC(=O)[C@H](CCC(=O)O)NC(=O)[C@H](CCC(=O)O)NC(=O)[C@H](CCC(N)=O)NC(=O)[C@H](CCCCN)NC(=O)[C@@H](NS(=O)(=O)c1cccc2c(N(C)C)cccc12)[C@@H](C)O)C(=O)O	Rho guanine nucleotide exchange factor TIAM1, PDZ domain (TIAM1, Homo sapiens, UniProt Q13009, K912E)	fluorescence anisotropy		25 °C, added: N-terminally dansylated peptide	Kd	135 ± 23 µM
CC[C@H](C)[C@H](NC(=O)[C@H](CC(=O)O)NC(=O)[C@H](CC(=O)O)NC(=O)[C@@H]1CCCN1C(=O)[C@H](C)NC(=O)[C@H](CC(C)C)NC(=O)[C@H](CCSC)NC(=O)[C@H](CC(C)C)NC(=O)[C@H](CC(=O)O)NC(=O)[C@H](CC(=O)O)NC(=O)[C@H](CCSC)NC(=O)[C@H](C)NC(=O)[C@H](CCC(N)=O)NC(=O)[C@H](C)NC(=O)[C@@H]1CCCN1C(=O)[C@H](CC(C)C)NC(=O)[C@@H]1CCCN1C(=O)[C@H](C)NC(=O)[C@H](CC(C)C)NC(=O)[C@@H](NC(=O)[C@H](CC(N)=O)NC(=O)[C@H](CC(N)=O)NC(=O)[C@H](CCC(=O)O)NC(=O)[C@@H]1CCCN1C(=O)[C@H](CC(C)C)NC(=O)[C@H](CC(C)C)NC(=O)[C@H](CCCCN)NC(=O)[C@H](Cc1c[nH]c2ccccc12)NC(=O)[C@H](CC(C)C)NC(=O)[C@H](CC(=O)O)NC(=O)[C@H](C)NC(=O)[C@H](Cc1ccccc1)NC(=O)[C@H](C)NC(=O)[C@H](CCC(=O)O)NC(=O)[C@H](CCC(N)=O)NC(=O)[C@H](C)NC(=O)[C@H](CC(C)C)NC(=O)[C@@H]1CCCN1C(=O)[C@@H]1CCCN1C(=O)[C@H](CCC(=O)O)NC(=O)[C@@H](NC(=O)[C@H](CO)NC(=O)[C@@H]1CCCN1C(=O)[C@H](CC(=O)O)NC(=O)[C@H](CO)NC(=O)[C@H](CCC(N)=O)NC(=O)[C@@H]1CCCN1C(=O)[C@H](CCC(=O)O)NC(=O)[C@H](CCC(=O)O)NC(=O)[C@@H](N)CCSC)C(C)C)C(C)C)C(=O)N[C@@H](CCC(=O)O)C(=O)N[C@@H](CCC(N)=O)C(=O)N[C@@H](Cc1c[nH]c2ccccc12)C(=O)N[C@@H](Cc1ccccc1)C(=O)N[C@@H](C)C(=O)N[C@@H](CCC(=O)O)C(=O)N[C@@H](CC(=O)O)C(=O)O	Histone acetyltransferase p300, TAZ1 domain (EP300, Homo sapiens, UniProt Q09472)	fluorescence anisotropy		TAZ1 domain, added: labelled p53 TAD peptide	Kd	0.56 ± 0.045 µM
Cc1cc2nc(NC(=O)C3CC3)sc2cc1Oc1ccc(F)c(NC(=O)Cc2cccc(C(F)(F)F)c2)c1	RIPK3	binding, competition with immobilised ligand			Kd	> 5 µM
CSCC[C@H](NC(=O)[C@H](CC(C)C)NC(=O)[C@H](Cc1c[nH]cn1)NC(=O)CNC(=O)[C@@H](NC(=O)[C@H](C)NC(=O)[C@H](Cc1c[nH]c2ccccc12)NC(=O)[C@H](CCC(N)=O)NC(=O)CCOCCOCCOCCOCCNC(=O)CN1CCN(CC(=O)O)CCN(CC(=O)O)CCN(CC(=O)O)CC1)C(C)C)C(N)=O [indium-111 labelled]		radio-HPLC	male Swiss nu/nu mice, blood	intravenous, 1 nmol, 15 min	intact peptide	1.8 ± 0.6%
COCCOCCOCCOC(=O)c1cnc2cc(-c3c(C)noc3C)c(OC)cc2c1N[C@H](C)c1ccccn1	Bromodomain-containing protein 4 (BRD4, Homo sapiens, UniProt O60885)	binding, SPR			Kd	8.5 µM
COc1cc(CNC(=O)C[C@H](C)CCC=C(C)C)ccc1OCc1cn(-c2cccc(C(F)(F)F)c2)nn1	MDA-MB-468 breast cancer cells	SRB		10 µM, 48 h	growth percent	64.9%

Excerpt of the above:
SMILES	tested on	assay	system	conditions	measurement	value
O=c1c(OS(=O)(=O)O)c(-c2ccc(OS(=O)(=O)O)c(OS(=O)(=O)O)c2)oc2cc(OS(=O)(=O)O)cc(OCCCOc3cc(OS(=O)(=O)O)cc4oc(-c5ccc(OS(=O)(=O)O)c(OS(=O)(=O)O)c5)c(OS(=O)(=O)O)c(=O)c34)c12	Fibronectin (FN1, Homo sapiens, UniProt P02751)	binding, MST			Kd	15.5 µM
CC(=O)N[C@@H]1[C@@H](O[C@@H]2O[C@H](C(=O)O)[C@@H](O[C@@H]3O[C@H](COS(=O)(=O)O)[C@@H](OS(=O)(=O)O)[C@H](O[C@@H]4O[C@H](C(=O)O)[C@@H](OS(=O)(=O)O)[C@H](OS(=O)(=O)O)[C@H]4OS(=O)(=O)O)[C@H]3NC(C)=O)[C@H](OS(=O)(=O)O)[C@H]2OS(=O)(=O)O)[C@H](OS(=O)(=O)O)[C@@H](COS(=O)(=O)O)O[C@H]1N=[N+]=[N-]	Transforming growth factor beta-1 proprotein, mature (TGFB1, Homo sapiens, UniProt P01137)	fluorescence polarization competition			Kd	4.8 ± 1.7 µM
COc1cc(CNC(=O)C[C@H](C)CCC=C(C)C)ccc1OCc1cn(-c2ccc([N+](=O)[O-])cc2)nn1	SF-268 CNS cancer cells	SRB		10 µM, 48 h	growth percent	88.8%
